# Measurements gathered from unrelated publications.
# Protocols differ between the studies behind these lines. Values joined by “and” are separate records of one study, mostly repeats; a detail may differ. ± marks the error that the study gave.
SMILES,test,system,conditions,how to read,quantity,value
CC(C)(O)c1ncc([S@](N)(=O)=NC(=O)Nc2c3c(cc4c2CCC4)CCC3)s1,,healthy human,"oral, 100 mg single dose, capsule formulation",,nervous system adverse events,67%
CC(C(=O)O)n1nc(Cn2cc3cc(OCC[18F])c(Cl)cc3n2)c2ccccc2c1=O (racemic),,"rat, brain",5 min,,tracer uptake,0.04 %ID/g
C=C(NC(=O)c1csc(-c2nc3c(cc2O)-c2nc(cs2)C(=O)NC(C(C)O)C(=O)NC(=C(C)OC)c2nc(cs2)C(=O)NC2c4nc(cs4)C(=O)NC(COC(=O)c4c5c6c(cccc6n4O)COC(=O)C(OC4CC(C)(O)C(N(C)C)C(C)O4)C2OC5)c2nc-3cs2)n1)C(N)=O (centres unmarked),,"male Sprague-Dawley rats, plasma","intravenous infusion, 6 mg/kg",,AUC(0-inf),1840 ng·h/mL
Cc1n[nH]c(C)c1CCCOc1cc(C(=O)NCCCCC(NC(=O)CN2CCN(CC(=O)[O-])CCN(CC(=O)[O-])CCN(CC(=O)[O-])CC2)C(=O)NCC2CCC(C(=O)NC(Cc3ccc4ccccc4c3)C(=O)NCCCCC(NC(=O)NC(CCC(=O)O)C(=O)O)C(=O)O)CC2)ccc1F.[68Ga+3] (centres unmarked),PET/CT,mice with PC-3 tumours,2 h post-injection,,tumour uptake,3.17 ± 0.82 %ID/g
CCCCN1C(=O)c2cccc3c(NCCCN4CCOCC4)ccc(c23)C1=O,,dichloromethane,,,absorption maximum,436 nm
C/C(N)=N/C(=N\S(=O)(=O)c1ccc(C(F)(F)F)cc1)N1C[C@H](c2ccccc2)C(c2ccc(Cl)cc2)=N1,,"male C57BL/6 mouse, kidney","intravenous, 10 mg/kg",,Tmax,0.25 h
COC1C=COC2(C)Oc3c(C)c(O)c4c(c3C2=O)C2=NC3(CCN(CC(C)C)CC3)NC2=C(NC(=O)C(C)=CC=CC(C)C(O)C(C)C(O)C(C)C(OC(=O)c2cccnc2)C1C)C4=O (centres unmarked),,"CD-1 mouse female, plasma","intravenous, 5 mg/kg",,clearance,2.98 mL/min/kg
CCCCN1C(=O)c2cccc3c(NCCCCCN4CCOCC4)ccc(c23)C1=O,,dichloromethane,,,absorption maximum,429 nm
CN1CCC[C@]1(C)/C=C/S(=O)(=O)NC(=O)Nc1c2c(cc3c1C(O)CC3)CCC2 (some centres unmarked),,"human, plasma","oral, 50 mg twice daily of parent drug, day 14, metabolite of dosed drug",,AUC(0-tau),108000 ng·h/mL
COc1cccc(OC)c1-c1cc(C(=O)NC2(C(=O)O)C3CC4CC(C3)CC2C4)nn1-c1ccc(C(=O)NCCNC(=O)[C@H](CCCCNC(=O)[C@H](CC(C)C)NC(=O)C2OC2C(=O)O)NC(=O)CN2CCN(CC(=O)[O-])CCN(CC(=O)[O-])CCN(CC(=O)[O-])CC2)cc1C(C)C.[177Lu+3] (mixture of isomers),,"mouse, HT-29 xenograft","72 h post injection, biodistribution",reference: tumour over liver uptake,tumour-to-liver ratio,4.53
CC(C)(F)CC(NC(c1ccc(-c2ccc(S(C)(=O)=O)cc2)cc1)C(F)(F)F)C(=O)NCC#CBr (centres unmarked),,PBS,"100 µM, 23 h, pH 7.45, 37 °C, together with: GSH 5 mM",,GSH adduct formation,11%
COc1cc(N2CCN(C(=O)C3CCCN3)CC2)ccc1Nc1ncc(Cl)c(Nc2ccccc2P(C)(C)=O)n1 (centres unmarked),,"nude mice, NCI-H3122 xenograft","intraperitoneal, 10 mg/kg every other day, day 3",,body weight,25.8 g and 22 g and 23.8 g and 23.5 g and 23 g
Cc1noc(C)c1Cn1cc(N2C(=O)CN(Cc3cccc(OS(=O)(=O)O)c3)C2=O)cn1,,"Sprague-Dawley rat, male","oral, 10 mg/kg of parent drug, 12 h",,plasma concentration,402 ng/mL
CC(C)C[C@H](NC(=O)[C@H](CCCNC(=N)N)NC(=O)[C@H](Cc1ccccc1)NC(=O)[C@H](Cc1ccccc1)NC(=O)[C@@H](NC(=O)[C@H](COP(=O)(O)O)NC(=O)[C@@H](N)COP(=O)(O)O)[C@@H](C)O)C(=O)N[C@@H](Cc1ccccc1)C(=O)N[C@@H](CC(N)=O)C(=O)N[C@@H](CCCNC(=N)N)C(=O)N[C@@H](C)C(=O)N[C@@H](CCCCN)C(=O)N[C@@H](CCCNC(=N)N)C(=O)N[C@@H](Cc1c[nH]cn1)C(=O)N[C@@H](Cc1c[nH]cn1)C(=O)NCC(=O)N[C@@H](Cc1ccc(O)cc1)C(=O)N[C@@H](CCCCN)C(=O)N[C@@H](CCCNC(=N)N)C(=O)N[C@@H](CCCCN)C(=O)N[C@@H](Cc1ccccc1)C(=O)N[C@@H](Cc1c[nH]cn1)C(=O)O,HPLC-UV,human saliva,"1 h, 37 °C, together with: initial 1 mg/mL",,peptide concentration,0.979 mg/mL
O=C(Nc1cnccc1-c1ccc([18F])cc1)c1ccnc(NC(=O)C2CC2)c1,ex vivo gamma counting,"GSK-3β transgenic mice, early-stage, cortex","intravenous, 120 min, mean, P-gp inhibitor pretreatment, together with: tariquidar 15 mg/kg iv",,SUV,0.24
Cc1c(Cc2ccc(Cl)c(OC(C)C(=O)O)c2)c2ccc(C(=O)NC(C)c3cccc(C(C)(C)C)c3)cc2n1C (centres unmarked),metabolic stability,"mouse, liver microsomes",,,half-life,0.607 h
COc1cccc(OC)c1-c1cc(C(=O)NC2(C(=O)O)C3CC4CC(C3)CC2C4)nn1-c1ccc(C(=O)N(C)CCOCCN(C)C(=O)[C@H](CCCCNC(=O)[C@H](CC(C)C)NC(=O)C2OC2C(=O)O)NC(=O)CN2CCN(CC(=O)[O-])CCN(CC(=O)[O-])CCN(CC(=O)[O-])CC2)cc1C(C)C.[177Lu+3] (mixture of isomers),,"mouse, HT-29 xenograft, spleen",72 h post injection,,tissue uptake,0.8 %ID/g
CCC(=O)N(CC#N)S(=O)(=O)c1ccc(C)cc1,"chemical stability, HPLC-MS",borate buffered saline,"pH 10.2, no N-acetyl-lysine",,degradation rate constant,14.7 h⁻¹
CN1CCC[C@]1(C)/C=C/S(=O)(=O)NC(=O)Nc1c2c(cc3c1CCC3)CCC2,"item: glucose in urine, not related",human,"oral, 12.5 mg twice daily, 14 days, multiple ascending dose",,subjects with adverse event,0%
CC(=O)N[C@H](CC(=O)O)C(=O)N[C@H](Cc1c[nH]c2ccccc12)C(=O)N[C@H](Cc1ccccc1)C(=O)N[C@H](CCCCN)C(=O)N[C@H](C)C(=O)N[C@H](Cc1ccccc1)C(=O)N[C@H](Cc1ccc(O)cc1)C(=O)N[C@H](CC(=O)O)C(=O)N[C@H](CCCCN)C(=O)N[C@@H](C(=O)N[C@H](C)C(=O)N[C@H](CCC(=O)O)C(=O)N[C@H](CCCCN)C(=O)N[C@H](Cc1ccccc1)C(=O)N[C@H](CCCCN)C(=O)N[C@H](CCC(=O)O)C(=O)N[C@H](C)C(=O)N[C@H](Cc1ccccc1)C(N)=O)C(C)C,,"high-risk statin-treated subjects with CHD, plasma","oral, dose not given, median, doses pooled",,Cmax,5.69 ng/mL
O=C(Nc1cnccc1-c1ccc([18F])nc1)c1ccnc(NC(=O)C2CC2)c1,,"FVB/NJ mouse, both sexes, liver","intravenous, 50 min",,SUV,8.4
CCCCCCCC(=O)[O][Pt]([Cl])([Cl])[O]C(=O)CCCCCCC.N.N,"ICP-MS, item: platinum","nude mice, blood","intravenous, 1.95 mg/kg",,elimination half-life,25.4 h
Cc1cc(C)nc(NC(=S)N2CCN(Cc3ccc(C(F)(F)F)cc3)CC2)c1,,plasma,"intraperitoneal, 30 mg/kg",,AUC extrapolated,0.1%
CCCCN1C(=O)c2cccc3c(NCCCCN4CCOCC4)ccc(c23)C1=O,,DMF,,,absorption maximum,441 nm
[2H]C1([2H])CC[C@@H](C[C@@H](C#N)NC(=O)[C@@H]2[C@@H]3[C@H](CN2C(=O)[C@@H](NC(=O)C(F)(F)F)C(C)(C)C)C3(C)C)C(=O)N1,,mouse liver microsomes,microsomes 0.5 mg/mL,,intrinsic clearance,136 µL/min/mg
Cc1nc(N)nc2c1C(=O)N[C@@H](c1ccc(F)cc1-c1cccc(OCC[18F])n1)C2,ex vivo biodistribution,"C57BL/6 mice, brain","intravenous, 1 MBq, 30 min",,SUV,0.36 ± 0.01

# Excerpt of the above:
SMILES,test,system,conditions,how to read,quantity,value
CN1CCC[C@]1(C)/C=C/S(=O)(=O)NC(=O)Nc1c2c(cc3c1C(O)CC3)CCC2 (some centres unmarked),,"human, plasma","oral, 50 mg twice daily of parent drug, day 14, metabolite of dosed drug",,AUC(0-tau),108000 ng·h/mL
COc1cccc(OC)c1-c1cc(C(=O)NC2(C(=O)O)C3CC4CC(C3)CC2C4)nn1-c1ccc(C(=O)N(C)CCOCCN(C)C(=O)[C@H](CCCCNC(=O)[C@H](CC(C)C)NC(=O)C2OC2C(=O)O)NC(=O)CN2CCN(CC(=O)[O-])CCN(CC(=O)[O-])CCN(CC(=O)[O-])CC2)cc1C(C)C.[177Lu+3] (mixture of isomers),,"mouse, HT-29 xenograft, spleen",72 h post injection,,tissue uptake,0.8 %ID/g
CCC(=O)N(CC#N)S(=O)(=O)c1ccc(C)cc1,"chemical stability, HPLC-MS",borate buffered saline,"pH 10.2, no N-acetyl-lysine",,degradation rate constant,14.7 h⁻¹
Cc1nc(N)nc2c1C(=O)N[C@@H](c1ccc(F)cc1-c1cccc(OCC[18F])n1)C2,ex vivo biodistribution,"C57BL/6 mice, brain","intravenous, 1 MBq, 30 min",,SUV,0.36 ± 0.01
